# Measurements gathered from unrelated publications.
# Each numbered part is a random draw from the data of one study; scales do not carry over between parts.

# Series 1
# Target: Interferon regulatory factor 7, full length, phosphomimetic (IRF7, Homo sapiens, UniProt Q92985, residues 1-503, S471D/S472D/S475D/S476D/S477D/S483D/S484D/S487D)
# Technique: protein-binding microarray
# Form: double-stranded DNA, one strand shown
# Sample: in vitro
# Tested at: 2200 nM top
# Notes: 60-bp whole probe
# Added: salmon DNA 0.4 mg/ml
# Relative to: random background probes
# Direction: higher = stronger binding
# Construct (chain): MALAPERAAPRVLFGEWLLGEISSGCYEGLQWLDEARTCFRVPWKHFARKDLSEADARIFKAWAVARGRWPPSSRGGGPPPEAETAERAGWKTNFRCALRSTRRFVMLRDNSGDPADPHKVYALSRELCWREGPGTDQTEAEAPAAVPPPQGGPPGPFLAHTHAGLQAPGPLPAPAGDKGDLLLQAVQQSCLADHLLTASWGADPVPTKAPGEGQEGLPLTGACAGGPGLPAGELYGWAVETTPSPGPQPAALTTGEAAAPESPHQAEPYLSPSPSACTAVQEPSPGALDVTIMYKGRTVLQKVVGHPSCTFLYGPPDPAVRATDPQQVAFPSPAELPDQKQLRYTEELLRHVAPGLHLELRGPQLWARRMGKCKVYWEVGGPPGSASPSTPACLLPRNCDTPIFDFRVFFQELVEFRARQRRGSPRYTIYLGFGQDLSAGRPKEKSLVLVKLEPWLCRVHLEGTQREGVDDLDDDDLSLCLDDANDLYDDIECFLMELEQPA
Sequence,fitted relative affinity [z-score]
GCCTAGCACTTTACTTTCTTTTTTTCTTTGTGCTAGGTCTTGATTCGCTTGACGCTGCTG,10.4
GCCTAGCACTTAGGTCACGGTATCGGTTAGTGCTAGGTCTTGATTCGCTTGACGCTGCTG,0.487
GCCTAGCACTTAGGTTCCGGTTTCGATTAGTGCTAGGTCTTGATTCGCTTGACGCTGCTG,7.46
GCCTAGCACGACTGTTTCGACTTTCGGGACGTGCTAGTCTTGATTCGCTTGACGCTGCTG,7.11

# Series 2
# Target: Histone acetyltransferase KAT6A, both winged helices, GST fusion (KAT6A, Homo sapiens, UniProt Q92794, residues 1-181)
# Technique: protein binding microarray
# Form: double-stranded DNA, one strand shown
# Sample: in vitro
# Tested at: not given
# Notes: 8-mer, flanks averaged, mean of 2 arrays, mostly near background
# Relative to: not given
# Direction: higher = stronger binding
# Target sequence (chain): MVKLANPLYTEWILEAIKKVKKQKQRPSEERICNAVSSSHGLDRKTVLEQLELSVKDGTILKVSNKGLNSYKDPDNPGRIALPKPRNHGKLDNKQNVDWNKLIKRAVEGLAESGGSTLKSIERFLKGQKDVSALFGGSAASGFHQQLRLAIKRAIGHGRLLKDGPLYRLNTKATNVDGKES
Sequence,E-score
CCAGAGCA,-0.126
CATGAAAC,0.179
CTGGCTTC,-0.0678
CACCTAGG,-0.0782
TGGAATAA,-0.1

# Series 3
# Target: Fragile X messenger ribonucleoprotein 1, C-terminal low-complexity region (Fmr1, Mus musculus, UniProt P35922)
# Technique: RNA Bind-n-Seq
# Form: RNA
# Sample: in vitro
# Tested at: 200 nM
# Notes: whole 134-nt RNA, ends assumed
# Added: 150 mM LiCl
# Relative to: input library
# Direction: higher = stronger binding
# All molecules: 7-deaza-guanosine replaces G
Sequence,log2 enrichment
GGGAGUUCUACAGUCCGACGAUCAAGUCCUGUGCUACACAUCGUAUGUACCGAAUCGGAAAGGGGAAAGGGGAAAGGGGAAAGUAUUAUGUUACGCCGUUCGGAUCUGCACUUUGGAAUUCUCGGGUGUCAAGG,0.557
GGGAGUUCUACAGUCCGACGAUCACCAUGCAGGUGGGCAUCUUUGGGAAGUGGUGCAAGGGGGGGAUAGGGAGGGGGGUAACACUUUGGGAACAGGUGGUCCCAGGUCGUUUCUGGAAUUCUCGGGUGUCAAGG,1.26
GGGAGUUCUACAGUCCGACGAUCUGGGAGGUGGAUUUUGUUUAUUUUUUUAGCUCAUUUCCAGGGGUGGGAAUUUUUUUUUAAUAUGUGUCAUGAAUAAAGUUGAUUUUGAAAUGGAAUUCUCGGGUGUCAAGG,0.0747
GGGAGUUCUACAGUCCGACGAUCCUGUGCUACACAUCGUAUGUACCGAAUCGGUUUUUUUGGGUUUUUUUGGGGUUUUUUUGGGGAAAGUAUUAUGUUACGCCGUUCGGAUCUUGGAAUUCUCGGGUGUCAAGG,1.37
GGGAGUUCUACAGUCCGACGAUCACCAAGCAGGUGGGCAUCUUUGGGAAGUGGGGCAAGGGGGGGAUAGGGAGGGGGGUAACACUUUGGGAACAGGUGGUCCCAGGUCGUUUCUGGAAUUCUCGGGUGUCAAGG,1.27
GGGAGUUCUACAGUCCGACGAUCCUGUGCUACACAUCGUAUGUACCGAAUCGGGGUUUUUUUGGGGUUUGGGGUUUUUUUGGGGAAAGUAUUAUGUUACGCCGUUCGGAUCUGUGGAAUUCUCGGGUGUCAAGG,0.524
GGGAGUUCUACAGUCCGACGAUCUCCUGUGCUACACAUCGUAUGUACCGAAUCGGGUUUUUUGGGUUUUUUGGGGUUUUUUGGAAAGUAUUAUGUUACGCCGUUCGGAUCUGCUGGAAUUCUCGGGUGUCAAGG,0.14

# Mixed results
Substance,target,assay,system,conditions,scale,quantity,result
"PhoQ, residues 284 288 289 292 302 303 SCCLKL","PhoP, residues 12 14 15 18 19 LHSVQ (Escherichia coli, UniProt P23836)","Sort-seq, item: YFP reporter",E. coli,"PhoQ-PhoP variant library, added: 10 µM Mg2+","relative to: high Mg2+ state, higher = stronger signaling",fold induction,2.6

# A few entries again (series 2):
Sequence,E-score
CCAGAGCA,-0.126
CATGAAAC,0.179
